Results collected from several papers.
A part holds a random share of what one study measured.
UniProt P07333, sequence (whole entry, looked up): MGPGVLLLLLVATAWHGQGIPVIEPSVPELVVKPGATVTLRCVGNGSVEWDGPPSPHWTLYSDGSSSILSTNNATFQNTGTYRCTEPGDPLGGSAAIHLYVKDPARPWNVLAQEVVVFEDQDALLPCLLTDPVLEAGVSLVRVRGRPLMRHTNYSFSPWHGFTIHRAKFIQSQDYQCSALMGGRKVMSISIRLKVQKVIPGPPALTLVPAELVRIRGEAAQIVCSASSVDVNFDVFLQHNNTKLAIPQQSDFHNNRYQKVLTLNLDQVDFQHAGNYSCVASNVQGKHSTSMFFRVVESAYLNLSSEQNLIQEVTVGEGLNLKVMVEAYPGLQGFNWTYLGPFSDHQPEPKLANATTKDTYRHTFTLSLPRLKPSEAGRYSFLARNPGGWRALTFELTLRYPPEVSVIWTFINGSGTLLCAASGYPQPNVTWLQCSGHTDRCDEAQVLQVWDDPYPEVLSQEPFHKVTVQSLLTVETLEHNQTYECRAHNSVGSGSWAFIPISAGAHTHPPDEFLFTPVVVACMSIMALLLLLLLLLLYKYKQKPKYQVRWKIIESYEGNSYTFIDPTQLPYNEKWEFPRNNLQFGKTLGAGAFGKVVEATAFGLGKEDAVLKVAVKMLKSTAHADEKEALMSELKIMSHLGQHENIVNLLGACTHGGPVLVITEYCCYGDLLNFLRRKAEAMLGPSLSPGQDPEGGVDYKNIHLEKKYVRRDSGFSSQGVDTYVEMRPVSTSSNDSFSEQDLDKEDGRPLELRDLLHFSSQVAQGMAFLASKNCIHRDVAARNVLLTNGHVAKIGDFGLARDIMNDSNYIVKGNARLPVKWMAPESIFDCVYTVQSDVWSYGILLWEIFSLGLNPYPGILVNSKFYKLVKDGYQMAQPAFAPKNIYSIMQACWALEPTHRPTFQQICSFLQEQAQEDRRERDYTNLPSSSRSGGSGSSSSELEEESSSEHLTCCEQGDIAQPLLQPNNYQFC

Series 1
Target: Sox-I, HMG box (Salpingoeca helianthica)
Method: Spec-seq
Form: double-stranded DNA, one strand shown
Sample: in vitro
Tested at: not given
Notes: whole probe, mean of replicates
Relative to: not given
Direction: lower = stronger binding
Constant ends, left off below: GAGTCGTCTCGTCAGCAC … CCGTAGAGCACTCAGGTC
Residues (chain): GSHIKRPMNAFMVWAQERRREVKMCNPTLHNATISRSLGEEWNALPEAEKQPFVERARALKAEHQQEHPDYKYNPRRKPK
Oligonucleotide	relative binding energy [ln ratio]
CTTGGTT	0.733
CATGAGG	1.14
TTCAGTT	-0.0927
CATGGAA	1
AAAAGTT	-1.37
CATAGCA	0.191
ATCAGTT	-0.284
CATTCCA	0.913

Series 2
Target: TAR DNA-binding protein 43, full length, His tag (TARDBP, Homo sapiens, UniProt Q13148, residues 1-414)
Method: RNA Bind-n-Seq
Form: RNA
Sample: in vitro
Tested at: 20 nM
Notes: 6-mer, flanks averaged, single round
With: 150 mM LiCl
Relative to: input library
Direction: higher = stronger binding
Oligonucleotide	6-mer enrichment (R)
AUCAGU	0.88
UGAUGU	1.18
CGUCGC	0.956
AACUUU	0.948
UUUCAC	0.94
UACUCC	0.967
CGUGCU	0.925
UUAUCU	0.992

Series 3
Target: Protein C-ets-1 (ETS1, Homo sapiens, UniProt P14921, residues 1-441, full length assumed)
Method: protein-binding microarray
Form: double-stranded DNA, one strand shown
Sample: in vitro
Tested at: not given
Notes: k-mer, scored over probes, only values ≥0.25
Direction: higher = stronger binding
Target sequence (chain): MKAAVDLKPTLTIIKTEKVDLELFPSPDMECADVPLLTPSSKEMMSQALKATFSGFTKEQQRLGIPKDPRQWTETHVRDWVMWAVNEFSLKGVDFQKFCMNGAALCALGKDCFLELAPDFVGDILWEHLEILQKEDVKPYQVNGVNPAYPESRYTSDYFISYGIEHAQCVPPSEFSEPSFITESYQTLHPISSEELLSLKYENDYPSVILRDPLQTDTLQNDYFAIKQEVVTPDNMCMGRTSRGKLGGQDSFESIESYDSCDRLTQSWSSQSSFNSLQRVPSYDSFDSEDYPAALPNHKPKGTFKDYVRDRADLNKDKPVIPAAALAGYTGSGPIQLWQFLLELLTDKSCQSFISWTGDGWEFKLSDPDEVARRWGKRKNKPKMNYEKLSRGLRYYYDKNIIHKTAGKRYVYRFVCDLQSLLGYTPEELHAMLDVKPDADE
Oligonucleotide	E-score
GCATCCGC	0.458
AGGAAAGG	0.253
GAAGTGGA	0.329
ACTTCCAC	0.4
CGGATGAC	0.399
CCCGCCCG	0.299
TCGGAAGA	0.267
CCCGCGGA	0.25

Other studies, line by line
SMILES	target	observed	mode	tested at	relative to	endpoint	value
NC(=O)c1ccc(-c2nc(-c3ccc4c(c3)OCCO4)c(-c3ccccn3)[nH]2)cc1	Macrophage colony-stimulating factor 1 receptor (CSF1R, Homo sapiens, UniProt P07333)	enzyme activity	inhibitor	0.5 µM	control	remaining activity	98%

Repeated from above (series 3):
Oligonucleotide	E-score
GAAGTGGA	0.329
CCCGCGGA	0.25
CGGATGAC	0.399
TCGGAAGA	0.267
